Measured values of several laboratories.
A part holds a random share of what one study measured.
Chain of UniProt P00519 (whole entry, unmodified, looked up): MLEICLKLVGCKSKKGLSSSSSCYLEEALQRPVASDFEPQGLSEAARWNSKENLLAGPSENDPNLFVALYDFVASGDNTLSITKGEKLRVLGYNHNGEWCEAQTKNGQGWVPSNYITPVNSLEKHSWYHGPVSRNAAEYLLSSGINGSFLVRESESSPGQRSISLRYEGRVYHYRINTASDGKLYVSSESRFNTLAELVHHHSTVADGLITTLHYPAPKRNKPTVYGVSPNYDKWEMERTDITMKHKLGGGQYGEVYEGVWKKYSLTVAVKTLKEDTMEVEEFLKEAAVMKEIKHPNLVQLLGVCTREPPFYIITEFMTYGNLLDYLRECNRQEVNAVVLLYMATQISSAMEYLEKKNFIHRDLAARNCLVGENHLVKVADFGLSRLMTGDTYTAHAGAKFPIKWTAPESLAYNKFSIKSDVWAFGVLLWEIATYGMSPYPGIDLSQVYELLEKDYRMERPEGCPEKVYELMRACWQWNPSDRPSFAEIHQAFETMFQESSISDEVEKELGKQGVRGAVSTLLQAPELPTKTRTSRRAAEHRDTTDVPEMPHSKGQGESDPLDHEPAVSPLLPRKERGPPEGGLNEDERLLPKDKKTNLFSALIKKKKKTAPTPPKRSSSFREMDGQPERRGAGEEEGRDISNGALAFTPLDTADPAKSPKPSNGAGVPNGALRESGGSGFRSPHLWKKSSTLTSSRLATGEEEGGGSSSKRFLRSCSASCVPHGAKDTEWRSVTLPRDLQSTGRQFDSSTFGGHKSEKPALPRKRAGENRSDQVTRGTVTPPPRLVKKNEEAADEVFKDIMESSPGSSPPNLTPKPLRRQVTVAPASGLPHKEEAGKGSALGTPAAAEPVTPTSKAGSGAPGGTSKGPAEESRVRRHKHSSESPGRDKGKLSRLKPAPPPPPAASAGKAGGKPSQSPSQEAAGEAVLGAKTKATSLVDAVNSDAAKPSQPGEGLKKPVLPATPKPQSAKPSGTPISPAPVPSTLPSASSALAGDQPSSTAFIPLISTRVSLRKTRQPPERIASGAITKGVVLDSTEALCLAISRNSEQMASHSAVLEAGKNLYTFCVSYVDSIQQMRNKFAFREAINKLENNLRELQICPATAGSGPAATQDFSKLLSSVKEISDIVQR
Chain of UniProt P21860 (whole entry, looked up): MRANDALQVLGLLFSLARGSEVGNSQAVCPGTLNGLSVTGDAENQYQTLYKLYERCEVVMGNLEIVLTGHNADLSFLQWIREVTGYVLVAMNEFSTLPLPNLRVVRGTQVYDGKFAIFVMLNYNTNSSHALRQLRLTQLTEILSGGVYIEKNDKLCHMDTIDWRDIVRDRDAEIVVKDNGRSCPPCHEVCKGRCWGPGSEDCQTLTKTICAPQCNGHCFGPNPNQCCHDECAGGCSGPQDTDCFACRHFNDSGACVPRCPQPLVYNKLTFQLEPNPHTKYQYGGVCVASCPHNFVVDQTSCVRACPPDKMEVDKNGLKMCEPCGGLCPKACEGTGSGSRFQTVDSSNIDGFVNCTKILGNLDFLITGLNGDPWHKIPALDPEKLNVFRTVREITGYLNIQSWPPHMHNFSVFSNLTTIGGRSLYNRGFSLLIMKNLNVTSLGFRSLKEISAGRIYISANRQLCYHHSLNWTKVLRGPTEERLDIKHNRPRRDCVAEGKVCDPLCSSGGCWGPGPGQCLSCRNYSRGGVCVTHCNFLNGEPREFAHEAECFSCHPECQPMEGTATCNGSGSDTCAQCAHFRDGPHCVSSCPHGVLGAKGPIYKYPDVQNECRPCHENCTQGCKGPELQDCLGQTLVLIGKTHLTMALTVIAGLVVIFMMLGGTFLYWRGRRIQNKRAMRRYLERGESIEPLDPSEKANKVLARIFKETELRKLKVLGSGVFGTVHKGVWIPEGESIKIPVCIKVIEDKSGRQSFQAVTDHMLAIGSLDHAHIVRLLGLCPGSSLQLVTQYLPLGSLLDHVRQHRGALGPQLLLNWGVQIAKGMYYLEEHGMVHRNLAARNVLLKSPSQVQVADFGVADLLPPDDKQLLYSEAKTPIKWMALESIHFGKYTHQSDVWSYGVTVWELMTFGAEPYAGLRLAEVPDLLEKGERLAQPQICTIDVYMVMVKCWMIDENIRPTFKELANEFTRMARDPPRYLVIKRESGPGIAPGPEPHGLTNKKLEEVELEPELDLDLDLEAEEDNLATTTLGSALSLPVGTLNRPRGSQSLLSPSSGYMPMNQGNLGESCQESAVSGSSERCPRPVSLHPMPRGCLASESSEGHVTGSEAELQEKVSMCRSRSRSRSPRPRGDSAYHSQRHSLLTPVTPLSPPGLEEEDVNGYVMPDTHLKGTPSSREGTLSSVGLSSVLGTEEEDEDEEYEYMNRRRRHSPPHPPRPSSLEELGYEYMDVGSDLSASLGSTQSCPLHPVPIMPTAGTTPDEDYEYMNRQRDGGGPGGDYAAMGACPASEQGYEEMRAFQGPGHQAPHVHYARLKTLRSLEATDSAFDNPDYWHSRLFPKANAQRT
Chain of UniProt Q96RR4 (whole entry, looked up): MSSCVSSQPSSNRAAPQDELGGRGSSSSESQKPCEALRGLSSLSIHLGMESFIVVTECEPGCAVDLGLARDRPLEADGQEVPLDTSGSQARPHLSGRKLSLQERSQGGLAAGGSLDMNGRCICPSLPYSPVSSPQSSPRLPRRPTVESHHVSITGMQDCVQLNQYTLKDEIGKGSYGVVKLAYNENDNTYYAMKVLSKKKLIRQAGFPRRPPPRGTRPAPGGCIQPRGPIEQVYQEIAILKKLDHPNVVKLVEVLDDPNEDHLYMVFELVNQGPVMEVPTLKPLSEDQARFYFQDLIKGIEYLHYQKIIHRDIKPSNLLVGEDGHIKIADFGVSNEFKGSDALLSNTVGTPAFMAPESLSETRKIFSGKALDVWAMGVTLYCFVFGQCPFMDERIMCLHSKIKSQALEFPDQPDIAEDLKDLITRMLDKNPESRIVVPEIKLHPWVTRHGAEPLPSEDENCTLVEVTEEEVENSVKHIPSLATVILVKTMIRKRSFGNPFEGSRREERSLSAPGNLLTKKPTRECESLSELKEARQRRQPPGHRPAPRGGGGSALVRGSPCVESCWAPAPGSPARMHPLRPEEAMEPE
Chain of UniProt Q9HBY8 (whole entry, looked up): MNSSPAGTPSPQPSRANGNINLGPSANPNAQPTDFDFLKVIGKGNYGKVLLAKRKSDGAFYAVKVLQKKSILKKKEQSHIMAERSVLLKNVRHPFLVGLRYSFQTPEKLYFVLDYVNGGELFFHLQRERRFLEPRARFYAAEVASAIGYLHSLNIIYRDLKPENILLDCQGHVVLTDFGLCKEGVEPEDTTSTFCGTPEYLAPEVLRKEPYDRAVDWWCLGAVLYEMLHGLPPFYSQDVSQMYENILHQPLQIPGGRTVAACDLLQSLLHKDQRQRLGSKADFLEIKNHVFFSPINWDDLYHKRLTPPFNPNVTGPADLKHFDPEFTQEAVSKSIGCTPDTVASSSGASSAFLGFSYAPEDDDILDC
Chain of UniProt Q8IW41 (whole entry, looked up): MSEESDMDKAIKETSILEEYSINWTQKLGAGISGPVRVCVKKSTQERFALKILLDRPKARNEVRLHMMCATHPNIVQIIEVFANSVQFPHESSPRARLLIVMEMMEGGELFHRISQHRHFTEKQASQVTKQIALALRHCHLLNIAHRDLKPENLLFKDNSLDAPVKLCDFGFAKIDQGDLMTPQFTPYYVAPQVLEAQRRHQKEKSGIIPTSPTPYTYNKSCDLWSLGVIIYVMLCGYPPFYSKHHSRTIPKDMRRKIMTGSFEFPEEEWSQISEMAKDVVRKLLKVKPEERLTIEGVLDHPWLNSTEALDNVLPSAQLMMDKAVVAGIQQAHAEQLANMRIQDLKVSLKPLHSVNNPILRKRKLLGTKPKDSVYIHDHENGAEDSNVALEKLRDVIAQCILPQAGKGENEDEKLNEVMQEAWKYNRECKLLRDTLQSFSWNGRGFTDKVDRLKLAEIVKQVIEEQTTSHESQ
Chain of UniProt P53778 (whole entry, looked up): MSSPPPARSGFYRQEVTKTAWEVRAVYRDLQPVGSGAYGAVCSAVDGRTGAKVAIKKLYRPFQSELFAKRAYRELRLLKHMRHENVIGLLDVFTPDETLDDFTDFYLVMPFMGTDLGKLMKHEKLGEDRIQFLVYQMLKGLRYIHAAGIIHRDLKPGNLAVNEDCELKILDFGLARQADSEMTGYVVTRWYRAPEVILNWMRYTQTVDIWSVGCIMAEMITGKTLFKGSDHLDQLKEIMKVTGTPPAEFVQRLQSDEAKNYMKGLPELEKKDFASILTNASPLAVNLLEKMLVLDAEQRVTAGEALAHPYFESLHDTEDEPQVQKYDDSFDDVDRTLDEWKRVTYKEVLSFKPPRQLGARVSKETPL

Study 1
SMILES: CC#CC(=O)N1CCC[C@H]1c1nc(-c2ccc(C(=O)Nc3ccccn3)cc2)c2c(N)nccn12
Effect on: enzyme activity
Action: inhibitor
Concentration: 1 µM
It gave 17% for inhibition (Aurora kinase A (AURKA, Homo sapiens, UniProt O14965)).
It gave 13% for inhibition (Membrane-associated tyrosine- and threonine-specific cdc2-inhibitory kinase (PKMYT1, Homo sapiens, UniProt Q99640)).
It gave 5% for inhibition (TRAF2 and NCK-interacting protein kinase (TNIK, Homo sapiens, UniProt Q9UKE5)).
Mitotic checkpoint serine/threonine-protein kinase BUB1 (BUB1, Homo sapiens, UniProt O43683) — inhibition: 11%.
Ephrin type-B receptor 1 (EPHB1, Homo sapiens, UniProt P54762) — inhibition: 0%.
For Proto-oncogene tyrosine-protein kinase Src (SRC, Homo sapiens, UniProt P12931): inhibition read 21%.

Study 2
Compound: C[C@H]1CC[C@H](n2c3cnccc3c3cnc(Nc4ccc5c(n4)CCN(C(=O)CO)C5)nc32)CC1
Concentration: 1 µM
For Tyrosine-protein kinase ABL1 (ABL1, Homo sapiens, UniProt P00519, Q252H): remaining binding read 73%.
It gave 100% for remaining binding (Serine/threonine-protein kinase MRCK gamma (CDC42BPG, Homo sapiens, UniProt Q6DT37); DiscoverX KINOMEscan).
It gave 84% for remaining binding (Receptor tyrosine-protein kinase erbB-3 (ERBB3, Homo sapiens, UniProt P21860); binding, competition with immobilised ligand).
The remaining binding was 94% (Serine/threonine-protein kinase VRK2 (VRK2, Homo sapiens, UniProt Q86Y07); binding, competition with immobilised ligand).
It gave 100% for remaining binding (Insulin receptor-related protein (INSRR, Homo sapiens, UniProt P14616); binding).
Tyrosine-protein kinase ABL1 (ABL1, Homo sapiens, UniProt P00519, T315I) — remaining binding: 81%.
It gave 74% for remaining binding (Tyrosine-protein kinase HCK (HCK, Homo sapiens, UniProt P08631); cell-free assay, competition with immobilised ligand).
The remaining binding was 100% (Mitogen-activated protein kinase 12 (MAPK12, Homo sapiens, UniProt P53778); binding, competition with immobilised ligand).
For Serine/threonine-protein kinase 10 (STK10, Homo sapiens, UniProt O94804); binding, competition with immobilised ligand: remaining binding read 100%.

Study 3
Target: Megakaryocyte-associated tyrosine-protein kinase (MATK, Homo sapiens, UniProt P42679)
Chain of UniProt P42679 (whole entry, looked up): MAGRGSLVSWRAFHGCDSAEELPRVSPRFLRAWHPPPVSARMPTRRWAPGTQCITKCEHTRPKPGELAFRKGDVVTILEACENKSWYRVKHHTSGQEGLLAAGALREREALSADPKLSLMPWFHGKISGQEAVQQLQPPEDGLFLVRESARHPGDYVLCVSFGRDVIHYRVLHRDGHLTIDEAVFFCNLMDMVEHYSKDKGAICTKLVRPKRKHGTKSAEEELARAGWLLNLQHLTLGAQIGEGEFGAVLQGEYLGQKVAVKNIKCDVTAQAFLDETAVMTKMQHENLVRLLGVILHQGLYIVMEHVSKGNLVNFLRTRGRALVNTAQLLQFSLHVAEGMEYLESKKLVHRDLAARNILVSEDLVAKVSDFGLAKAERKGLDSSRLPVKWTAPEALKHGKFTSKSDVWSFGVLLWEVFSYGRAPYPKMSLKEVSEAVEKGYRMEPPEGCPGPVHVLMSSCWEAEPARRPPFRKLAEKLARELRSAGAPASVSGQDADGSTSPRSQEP
Effect on: enzyme activity
Action: inhibitor
Concentration: 0.5 µM
Baseline: control
The remaining activity of `CO[C@H]1C[C@@H]2CC[C@@H](C)[C@@](O)(O2)C(=O)C(=O)N2CCCC[C@H]2C(=O)O[C@H]([C@H](C)C[C@@H]2CC[C@@H](O)[C@H](OC)C2)CC(=O)[C@H](C)/C=C(\C)[C@@H](O)[C@@H](OC)C(=O)[C@H](C)C[C@H](C)/C=C/C=C/C=C/1C` is reported as 92%.
`Cc1ccc(Nc2nccc(N(C)c3ccc4c(C)n(C)nc4c3)n2)cc1S(N)(=O)=O` gave a remaining activity of 104%.
`CCOC(=O)c1c(C)[nH]c(/C=C2\C(=O)Nc3ccccc32)c1C` gave a remaining activity of 101%.
The remaining activity of `O=S(=O)(c1cccc2cnccc12)N1CCCNCC1` is reported as 99.6%.
For `O=C1NC(=O)C(c2cn(CCCn3ccnc3)c3ccccc23)=C1Nc1ccccc1`, the remaining activity was 89.8%.
`Cc1nc(-c2ccccc2)c(-c2ccncc2)o1` has a remaining activity of 90.3%.
With `Oc1ccc(-c2nc(-c3ccncc3)c(-c3ccc(F)cc3)[nH]2)cc1` the remaining activity was 90.3%.
With `COc1ccc(CNC(=O)Nc2ncc([N+](=O)[O-])s2)cc1` the remaining activity was 96.6%.
`OCC(O)CCON=C1C(c2c(O)[nH]c3ccccc23)=Nc2ccccc21` (stereo not drawn) has a remaining activity of 101%.
With `Cn1c2ccccc2c2c3c(c4c5ccccc5n(CCC#N)c4c21)CNC3=O` the remaining activity was 100%.
For `COc1cc2ncnc(Nc3ccc(Oc4ccccc4)cc3)c2cc1OC`, the remaining activity was 94.3%.
The remaining activity of `N#CC(C#N)=C(N)/C(C#N)=C/c1ccc(O)cc1` is reported as 92.5%.
The remaining activity of `C#Cc1cccc(Nc2ncnc3cc(OCCOC)c(OCCOC)cc23)c1` is reported as 77.2%.
The remaining activity of `Cc1ccc(NC(=O)c2ccc(CN3CCN(C)CC3)cc2)cc1Nc1nc(-c2cccnc2)cs1` is reported as 85.9%.
`O=C(Nc1cccc(Nc2cc(Nc3cccc(C(F)(F)F)c3)ncn2)c1)C1CC1` gave a remaining activity of 96.1%.
With `O=C(O)c1ccc2c3c1cccc3c(=O)n1c3ccccc3nc21` the remaining activity was 94%.

Study 4
SMILES: CS(=O)(=O)NCC[C@H](NC(=O)c1cncc2c1cnn2-c1ccc(F)cc1)c1ccnc(S(C)(=O)=O)c1
Effect on: cell-free assay
Method: competition with immobilised ligand
Concentration: 1 µM
The remaining binding was 100% (Calcium/calmodulin-dependent protein kinase kinase 2 (CAMKK2, Homo sapiens, UniProt Q96RR4)).
The remaining binding was 92% (Receptor-type tyrosine-protein kinase FLT3 (FLT3, Homo sapiens, UniProt P36888, ITD)).
ALK tyrosine kinase receptor (ALK, Homo sapiens, UniProt Q9UM73, C1156Y) — remaining binding: 100%.
It gave 100% for remaining binding (Calcium/calmodulin-dependent protein kinase type IV (CAMK4, Homo sapiens, UniProt Q16566)).
For MAP kinase-activated protein kinase 5 (MAPKAPK5, Homo sapiens, UniProt Q8IW41): remaining binding read 100%.
It gave 94% for remaining binding (Serine/threonine-protein kinase Sgk2 (SGK2, Homo sapiens, UniProt Q9HBY8)).
The remaining binding was 100% (Tyrosine-protein kinase Fer (FER, Homo sapiens, UniProt P16591)).
For Receptor-type tyrosine-protein kinase FLT3 (FLT3, Homo sapiens, UniProt P36888, D835Y): remaining binding read 97%.

Some of these lines once more (study 4):
For Receptor-type tyrosine-protein kinase FLT3 (FLT3, Homo sapiens, UniProt P36888, D835Y): remaining binding read 97%.
ALK tyrosine kinase receptor (ALK, Homo sapiens, UniProt Q9UM73, C1156Y) — remaining binding: 100%.
The remaining binding was 100% (Tyrosine-protein kinase Fer (FER, Homo sapiens, UniProt P16591)).
It gave 94% for remaining binding (Serine/threonine-protein kinase Sgk2 (SGK2, Homo sapiens, UniProt Q9HBY8)).
It gave 100% for remaining binding (Calcium/calmodulin-dependent protein kinase type IV (CAMK4, Homo sapiens, UniProt Q16566)).
The remaining binding was 92% (Receptor-type tyrosine-protein kinase FLT3 (FLT3, Homo sapiens, UniProt P36888, ITD)).
